Measurements from different studies.
Protocols differ between the studies behind these lines. Several values in a cell are separate wells, animals, samples, runs or records. Numbers after ± are the reported error.
rep main protease: Replicase polyprotein 1ab, main protease (rep, Severe acute respiratory syndrome coronavirus 2, UniProt P0DTD1)

`CC(NC(=O)C(Cc1ccccc1)NC(=O)OCc1ccccc1)C(=O)CF` (stereo not shown) gave an inhibition of 88.7% (rep main protease; enzyme activity, inhibitor; 57.5 µM).
`N[C@H](C[Se][Se]C[C@@H](N)C(=O)O)C(=O)O` gave an inhibition of 54.6% and 54.4% (rep main protease; enzyme activity, inhibitor; 40 µM).
`Nc1ccc(-n2[se]c3ccccc3c2=O)cc1` has an inhibition of 71.6% (rep main protease; enzyme activity, inhibitor; 0.3 µM).
With `O=C(Oc1ccc(OC(=O)c2ccc(C(=O)Nc3ccccc3C(=O)O)c(C(=O)O)c2)cc1)c1ccc(C(=O)Nc2ccccc2C(=O)O)c(C(=O)O)c1` the inhibition was 10.2% (rep main protease; enzyme activity, inhibitor; 100 µg/mL).
The inhibition of `COC(=O)c1cc2c(=O)n3ccccc3nc2n1Cc1ccccc1` is reported as 10% (rep main protease; enzyme activity, inhibitor; 1 µM).
`O=C(Oc1cncc(Cl)c1)c1cccc2cc[nH]c12` gave an inhibition of 100% (rep main protease; enzyme activity, inhibitor, fluorescence; 10 µM, pH 7.2).
With `O=C(NC1CCN(c2ncnc3[nH]cnc23)CC1)c1cccc(NS(=O)(=O)c2ccc(C(F)(F)F)cc2)c1` the inhibition was 10.3% (Replicase polyprotein 1ab, nsp14 with nsp10 (rep, Severe acute respiratory syndrome coronavirus 2, UniProt P0DTD1); exonuclease activity; SARS-CoV-2; 0.7812 µM).
The inhibition of `C[C@@H](Cc1ccc(O)c(O)c1)[C@@H](C)Cc1ccc(O)c(O)c1` is reported as 48.4% (rep main protease; enzyme activity, inhibitor, FRET; 8 µM).
With `O=C(Oc1cncc(Cl)c1)c1ccco1` the inhibition was 97% (rep main protease; enzyme activity, inhibitor; 50 µM).
For `CC(=O)Oc1cccc2c1C(=O)C=CC2=O`, the inhibition was 101% (rep main protease; enzyme activity, inhibitor; 10 µM).
For `COC(=O)C[C@@H](C(=O)OC)n1[se]c2ccccc2c1=O`, the inhibition was 105% (rep main protease; enzyme activity, inhibitor; 40 µM).
`CNc1nc(NC(C)c2ccccc2Cl)nc(N2CCN(C(=O)CCl)CC2)n1` (stereo not shown): inhibition “inhibited” (rep main protease; inhibitor; 1 µM).
`COC(=O)[C@H](C)n1[se]c2ccccc2c1=O` gave an inhibition of 105% and 104% (rep main protease; enzyme activity, inhibitor; 40 µM).
For `C/C=C/C=C/C(=O)Nc1cccc(/C=C/C(=O)c2cccc(NC(=O)/C=C/C=C/C)c2)c1`, the inhibition was 95.2% (rep main protease; enzyme activity, inhibitor; 100 µM).
The inhibition of `CC(=O)Nc1ccc(S(=O)(=O)NNc2ncnc3sccc23)cc1` is reported as 17% (Replicase polyprotein 1ab, nsp3 macrodomain (rep, Severe acute respiratory syndrome coronavirus 2, UniProt P0DTD1); ADP-ribosylhydrolase activity, inhibitor, gel-based de-MARylation; 1 µM, SARS-CoV-2 Mac1).
The inhibition of `CC(NC(=O)c1ccccc1[Se][Se]c1ccccc1C(=O)NC(C)C(=O)O)C(=O)O` (stereo not shown) is reported as 103% (rep main protease; enzyme activity, inhibitor; 40 µM, mean of repeats).
For `O=C(c1ccc([N+](=O)[O-])c(-n2ccnc2)c1)N(c1cccc(Cl)c1)c1nc2ccccc2s1`, the inhibition was 9.8% (rep main protease; reporter gene, inhibitor; HEK293T; 10 µM, primary screen, wild type).
`C[C@](C(=O)NC1CCC(F)(F)CC1)(c1cncnc1)N(C(=O)[C@H](F)Cl)c1ccc(OC(F)(F)F)cc1` gave an inhibition of 98.6% and 98.5% (rep main protease; enzyme activity; 0.926 µM).
`CCN1C(=O)CCC1c1c(O)cc(O)c2c1O[C@H](c1cc(O)c(O)c(O)c1)[C@H](OC(=O)c1cc(O)c(O)c(O)c1)C2` (stereo partly shown) gave an inhibition of 93.66 ± 0.14% (rep main protease; intracellular protease activity; HEK293T; 100 µM).
`CC1(C)C=Cc2c(ccc(C3COc4cc(O)cc(O)c4C3=O)c2O)O1` (stereo not shown) gave an inhibition of 66.9% (rep main protease; enzyme activity, inhibitor; 8 µM).
With `O=C(NC1CCC(F)(F)CC1)C(c1cncnc1)N(C(=O)C(F)Cl)c1ccc(OC(F)(F)F)cc1` (stereo not shown) the inhibition was 101% (rep main protease; enzyme activity, inhibitor; 25 µM).
With `Nc1nnc(SC2CC(=O)N(c3cccc4ccccc34)C2=O)s1` (stereo not shown) the inhibition was 40.7% (rep main protease; enzyme activity, inhibitor; 1 µM).
The inhibition of `O=C(NC1CCC(F)(F)CC1)C(c1cncnc1)N(C(=O)C(F)Cl)c1ccc(-c2cncs2)cc1` (stereo not shown) is reported as 103% and 100% (rep main protease; enzyme activity; 0.926 µM).
With `CCOC(=O)CNC(=O)c1ccccc1[Se][Se]c1ccccc1C(=O)NCC(=O)OCC` the inhibition was 105% (rep main protease; enzyme activity, inhibitor; 40 µM, mean of repeats).
`C[C@](C(=O)NC1CCOCC1)(c1cncnc1)N(C(=O)[C@H](F)Cl)c1ccc(OC(F)(F)Cl)cc1` gave an inhibition of 102% and 100% (rep main protease; enzyme activity; 10 µM).
`O=c1c2ccccc2[se]n1-c1ccncc1F` gave an inhibition of 93.7% (rep main protease; enzyme activity, inhibitor; 0.3 µM).
For `CC(C)[C@@H]1CC[C@@H](C)C[C@H]1NC(=O)c1ccccc1[Se][Se]c1ccccc1C(=O)N[C@@H]1C[C@H](C)CC[C@H]1C(C)C`, the inhibition was 96.1% (rep main protease; enzyme activity, inhibitor; 40 µM, mean of repeats).
`NS(=O)(=O)c1ccc(CCNC(=O)OC(=O)c2ccccc2NC(=O)c2ccco2)cc1` gave an inhibition of 0% (rep main protease; enzyme activity, inhibitor; 100 µg/mL).

Some of these lines once more:
`O=c1c2ccccc2[se]n1-c1ccncc1F` gave an inhibition of 93.7% (rep main protease; enzyme activity, inhibitor; 0.3 µM).
`O=C(Oc1cncc(Cl)c1)c1cccc2cc[nH]c12` gave an inhibition of 100% (rep main protease; enzyme activity, inhibitor, fluorescence; 10 µM, pH 7.2).
With `O=C(Oc1cncc(Cl)c1)c1ccco1` the inhibition was 97% (rep main protease; enzyme activity, inhibitor; 50 µM).
For `COC(=O)C[C@@H](C(=O)OC)n1[se]c2ccccc2c1=O`, the inhibition was 105% (rep main protease; enzyme activity, inhibitor; 40 µM).
